{"data": "Assay results pooled from the literature", "note": "Parts stem from different laboratories: compare values within a part only. Substitutions count along the parent as printed."}
{"data": "Series 1", "target": "UBE2W UBC core domain (UniProt Q96B02)", "method": "yeast two-hybrid", "matrix": "yeast", "notes": "mostly zero background", "reference": "not given", "reading": "higher = stronger interaction", "B1": "ZNRF3 RING domain (UniProt Q9ULT6); chain DTLSSSSTSDCAICLEKYIDGEELRVIPCTHRFHRKCVDPWLLQHHTCPHCRHNIIEQKGNP", "B2": "RNF24 RING domain (UniProt Q9Y225); chain KVKELNLHELCAVCLEDFKPRDELGICPCKHAFHRKCLIKWLEVRKVCPLCNMPVLQLAQLH", "Residues (chain)": "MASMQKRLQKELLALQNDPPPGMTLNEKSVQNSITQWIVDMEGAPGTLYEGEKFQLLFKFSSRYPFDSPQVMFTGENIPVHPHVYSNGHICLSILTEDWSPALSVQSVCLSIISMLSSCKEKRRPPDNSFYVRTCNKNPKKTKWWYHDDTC"}
{"Sequence": "KLWDINAHITCRLCSGYLIDATTVTECLHTFCRSCLVKYLEENNTCPTCRIVIHQSHPLQ (PCGF3 RING domain (UniProt Q3KNV8))", "lacZ reporter activity": 0}
{"Sequence": "B1 (ZNRF3 RING domain)", "lacZ reporter activity": 0}
{"Sequence": "B2 (RNF24 RING domain)", "lacZ reporter activity": 0}
{"Sequence": "KITELNPHLMCVLCGGYFIDATTIIECLHSFCKTCIVRYLETSKYCPICDVQVHKTRPLL (BMI1 RING domain (UniProt P35226))", "lacZ reporter activity": 0}
{"data": "Series 2", "target": "CCNB2, cyclin fold, Cln2 fusion (human)", "method": "yeast growth competition, sequencing", "matrix": "yeast", "notes": "strong parent motif", "reference": "not given", "reading": "higher = stronger binding", "starting sequence": "viral docking peptide; TSVRRALFTGGSD; partner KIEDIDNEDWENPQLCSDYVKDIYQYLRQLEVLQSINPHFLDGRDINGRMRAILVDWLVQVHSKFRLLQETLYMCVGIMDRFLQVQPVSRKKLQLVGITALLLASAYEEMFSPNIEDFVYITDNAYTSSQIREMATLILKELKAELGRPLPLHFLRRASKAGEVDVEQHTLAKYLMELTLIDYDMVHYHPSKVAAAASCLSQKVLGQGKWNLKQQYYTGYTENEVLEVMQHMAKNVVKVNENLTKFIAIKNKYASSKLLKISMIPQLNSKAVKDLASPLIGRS"}
{"Variant": "TSVWRALFTGGSD [R4W]", "normalised enrichment score": 0.0449}
{"Variant": "TSSRRALFTGGSD [V3S]", "normalised enrichment score": 0.0605}
{"Variant": "TSVRRALFTDGSD [G10D]", "normalised enrichment score": 1.08}
{"Variant": "TSVRRALFTLGSD [G10L]", "normalised enrichment score": 0.534}
{"Variant": "TSVRSALFTGGSD [R5S]", "normalised enrichment score": 0.164}
{"Variant": "TSVRRALFIGGSD [T9I]", "normalised enrichment score": 0.573}
{"Variant": "TSVRCALFTGGSD [R5C]", "normalised enrichment score": 0.183}
{"Variant": "TSQRRALFTGGSD [V3Q]", "normalised enrichment score": -0.188}
{"Variant": "TSVRRALFSGGSD [T9S]", "normalised enrichment score": 0.709}
{"Variant": "TSVRRALFTGESD [G11E]", "normalised enrichment score": 1.19}
{"Variant": "TSVRRALFTGVSD [G11V]", "normalised enrichment score": 0.944}
{"Variant": "TSVRRALFTGGGD [S12G]", "normalised enrichment score": 0.259}
{"Variant": "TSVRRALFTYGSD [G10Y]", "normalised enrichment score": 0.813}
{"Variant": "TSVRRALHTGGSD [F8H]", "normalised enrichment score": 0.667}
{"Variant": "TSVRRAHFTGGSD [L7H]", "normalised enrichment score": 0.0919}
{"Variant": "TSVRRGLFTGGSD [A6G]", "normalised enrichment score": 0.49}
{"Variant": "TSVMRALFTGGSD [R4M]", "normalised enrichment score": 0.186}
{"Variant": "TSVCRALFTGGSD [R4C]", "normalised enrichment score": 0.0792}
{"Variant": "TSVHRALFTGGSD [R4H]", "normalised enrichment score": -0.187}
{"data": "Series 3", "target": "HLA class I histocompatibility antigen, A alpha chain, allele A*25:01 (Homo sapiens, UniProt P04439)", "read-out": "peptide-MHC binding", "form": "peptide", "tested at": "concentration not given"}
{"Sequence": "KKNHWFILK", "binding": "inactive"}
{"Sequence": "RLGWRTLDF", "binding": "inactive"}
{"Sequence": "LIMEFNSLL", "binding": "inactive"}
{"data": "Series 4", "target": "RING finger protein unkempt homolog, zinc fingers 1-6, GST-SBP tag (UNK, Homo sapiens, UniProt Q9C0B0, residues 30-357)", "method": "RNA Bind-n-Seq", "form": "RNA", "matrix": "in vitro", "tested at": "not given", "notes": "RNA with constant flanks, human-mouse chimeric sites, ends assumed", "reference": "input RNA pool", "reading": "higher = stronger binding", "shared flanks, not repeated": "GGGAGUUCUACAGUCCGACGAUC … CAACAGAGGAUUGAGCAUCA", "chain of UniProt Q9C0B0 (30-357, looked up)": "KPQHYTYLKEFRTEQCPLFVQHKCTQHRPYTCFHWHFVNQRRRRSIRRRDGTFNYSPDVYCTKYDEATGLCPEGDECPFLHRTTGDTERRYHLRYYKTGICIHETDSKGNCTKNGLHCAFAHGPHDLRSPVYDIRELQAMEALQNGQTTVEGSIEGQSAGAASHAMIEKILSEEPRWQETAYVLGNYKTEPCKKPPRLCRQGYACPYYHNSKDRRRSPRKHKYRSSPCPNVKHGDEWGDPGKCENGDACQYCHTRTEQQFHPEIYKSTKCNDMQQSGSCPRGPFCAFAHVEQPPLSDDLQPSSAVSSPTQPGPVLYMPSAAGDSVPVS"}
{"Oligonucleotide": "CAGCCUCAGAGCCCAGACUUCCUGGAUAUUACCAACCCUAAAGCGGUAUUAGAAAAUGCAUUGAGAAACUUCGCCUGUCUGACGACUGGGGAUGUGAUUGCUAUCAACUACAAUGAGAAG", "bound/input enrichment": "0.427 ratio"}
{"Oligonucleotide": "GGCUGCUACUAUUCUCCCUGGAGUGGCUGGAGUUCCCGCCGGAGCGCGGCCAGACUAAUUUUAGAAAAUGCCAAGUAGGAAAUUUGCUGAGGGUGAAGUGGUCAGAGGCCGAUGGCCUGG", "bound/input enrichment": "5.41 ratio"}
{"Oligonucleotide": "GGUGGGGUGGUCAUUGCCGUUUGAGCUGCUGAUUUUCAUGAGUCGCCCAUUCAGAACUCGUGUAGGGUUGACAAUGUGGGGGGGUGGGGGAUCCAGCUUAUUCUUUUUCCCCAGCCCCCA", "bound/input enrichment": "0.354 ratio"}
{"Oligonucleotide": "GAAUCCUCCCGUGCAAAAUUUUGCAACACCAAGCUCAAGUAGCAAUUAUCUUAGUCACAGUAGGGUAGUUUUGGGGCUCUGUGGCCAGGGUUUUAUUCACAUGCAGGUUUGGAAAAUGUA", "bound/input enrichment": "2.12 ratio"}
{"Oligonucleotide": "GCUGAAAAUGAAGAAGAGGCAGCUGAUGUCUGGUACAACUUGGGACACAUAGCUGUGGGAAUCGGAGAUACAAACUUGGCCCAUCAGUGCUUCAGGCUGGCCCUGGUCCACAACAACCAC", "bound/input enrichment": "0.124 ratio"}
{"Oligonucleotide": "CCCCAAUACCAUUUGCAAGAGUUGGAAUGCACUCUCUUUUUUAAAAAACAUGUAUACAUUUUAGGGCUGUAGACUUAUUUUCCUGGUUUUGUUUUUCAUUGCUGACUUUUGAGCACAGAA", "bound/input enrichment": "1.19 ratio"}
{"Oligonucleotide": "CCCCAAUACCAUUUGCAAGAGUUGGAAUGCACUCUCUUUUUUAAAAAACAUGUAUACAUUUUAGGGCUGUAGAUUUAUUUUCCUGGUUUUGUUUUUCAUUGCUGACUUUUGAGCACAGAA", "bound/input enrichment": "1.42 ratio"}
{"Oligonucleotide": "UACUCAACUUUCUUGCCACAUUUUGAAUUCCAAGACAUUAUUCCUCCAGAUGACUUCCUAACUAGUGAUGAAGAAGUAGAUUUGGUUUUAUUUGGAACUAUGAGAGGACAAGUUGUUGGA", "bound/input enrichment": "1 ratio"}
{"data": "Single results of other studies", "method": "two-hybrid", "reference": "out of 4 tests", "reading": "higher = firmer interaction", "T1": "itself; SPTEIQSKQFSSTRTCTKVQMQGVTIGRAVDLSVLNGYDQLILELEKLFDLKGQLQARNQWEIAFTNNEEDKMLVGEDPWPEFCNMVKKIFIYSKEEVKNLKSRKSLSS", "T2": "itself; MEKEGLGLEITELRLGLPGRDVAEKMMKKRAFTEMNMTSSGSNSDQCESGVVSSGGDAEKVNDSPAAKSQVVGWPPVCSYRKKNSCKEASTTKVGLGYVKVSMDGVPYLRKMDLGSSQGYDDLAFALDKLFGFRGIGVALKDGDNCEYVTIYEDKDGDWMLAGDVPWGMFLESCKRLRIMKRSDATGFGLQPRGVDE", "T3": "itself; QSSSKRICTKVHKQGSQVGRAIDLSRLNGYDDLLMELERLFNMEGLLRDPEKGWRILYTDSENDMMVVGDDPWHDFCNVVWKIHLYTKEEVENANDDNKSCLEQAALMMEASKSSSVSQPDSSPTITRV", "T4": "itself; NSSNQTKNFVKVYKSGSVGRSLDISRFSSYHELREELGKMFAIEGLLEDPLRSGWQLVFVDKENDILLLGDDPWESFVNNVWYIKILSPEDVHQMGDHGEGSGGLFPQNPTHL", "B3": "ARF14 497-605 (Arabidopsis thaliana, UniProt Q9LQE8); chain SPTEIQSKQFSSTRTCTKVQMQGVTIGRAVDLSVLNGYDQLILELEKLFDLKGQLQARNQWEIAFTNNEEDKMLVGEDPWPEFCNMVKKIFIYSKEEVKNLKSRKSLSS", "B4": "IAA19 (Arabidopsis thaliana, UniProt O24409); chain MEKEGLGLEITELRLGLPGRDVAEKMMKKRAFTEMNMTSSGSNSDQCESGVVSSGGDAEKVNDSPAAKSQVVGWPPVCSYRKKNSCKEASTTKVGLGYVKVSMDGVPYLRKMDLGSSQGYDDLAFALDKLFGFRGIGVALKDGDNCEYVTIYEDKDGDWMLAGDVPWGMFLESCKRLRIMKRSDATGFGLQPRGVDE", "B5": "ARF4 660-788 (Arabidopsis thaliana, UniProt Q9ZTX9); chain QSSSKRICTKVHKQGSQVGRAIDLSRLNGYDDLLMELERLFNMEGLLRDPEKGWRILYTDSENDMMVVGDDPWHDFCNVVWKIHLYTKEEVENANDDNKSCLEQAALMMEASKSSSVSQPDSSPTITRV", "B6": "ARF8 699-811 (Arabidopsis thaliana, UniProt Q9FGV1); chain NSSNQTKNFVKVYKSGSVGRSLDISRFSSYHELREELGKMFAIEGLLEDPLRSGWQLVFVDKENDILLLGDDPWESFVNNVWYIKILSPEDVHQMGDHGEGSGGLFPQNPTHL"}
{"Sequence": "B3 (ARF14 497-605)", "partner": "T1, itself", "positive tests": 0}
{"Sequence": "B4 (IAA19)", "partner": "T2, itself", "positive tests": 1}
{"Sequence": "B5 (ARF4 660-788)", "partner": "T3, itself", "positive tests": 0}
{"Sequence": "B6 (ARF8 699-811)", "partner": "T4, itself", "positive tests": 0}
{"note": "Excerpt of the above (series 4):"}
{"Oligonucleotide": "UACUCAACUUUCUUGCCACAUUUUGAAUUCCAAGACAUUAUUCCUCCAGAUGACUUCCUAACUAGUGAUGAAGAAGUAGAUUUGGUUUUAUUUGGAACUAUGAGAGGACAAGUUGUUGGA", "bound/input enrichment": "1 ratio"}
{"Oligonucleotide": "GAAUCCUCCCGUGCAAAAUUUUGCAACACCAAGCUCAAGUAGCAAUUAUCUUAGUCACAGUAGGGUAGUUUUGGGGCUCUGUGGCCAGGGUUUUAUUCACAUGCAGGUUUGGAAAAUGUA", "bound/input enrichment": "2.12 ratio"}
{"Oligonucleotide": "GGUGGGGUGGUCAUUGCCGUUUGAGCUGCUGAUUUUCAUGAGUCGCCCAUUCAGAACUCGUGUAGGGUUGACAAUGUGGGGGGGUGGGGGAUCCAGCUUAUUCUUUUUCCCCAGCCCCCA", "bound/input enrichment": "0.354 ratio"}
{"Oligonucleotide": "CAGCCUCAGAGCCCAGACUUCCUGGAUAUUACCAACCCUAAAGCGGUAUUAGAAAAUGCAUUGAGAAACUUCGCCUGUCUGACGACUGGGGAUGUGAUUGCUAUCAACUACAAUGAGAAG", "bound/input enrichment": "0.427 ratio"}
{"Oligonucleotide": "CCCCAAUACCAUUUGCAAGAGUUGGAAUGCACUCUCUUUUUUAAAAAACAUGUAUACAUUUUAGGGCUGUAGACUUAUUUUCCUGGUUUUGUUUUUCAUUGCUGACUUUUGAGCACAGAA", "bound/input enrichment": "1.19 ratio"}
{"Oligonucleotide": "CCCCAAUACCAUUUGCAAGAGUUGGAAUGCACUCUCUUUUUUAAAAAACAUGUAUACAUUUUAGGGCUGUAGAUUUAUUUUCCUGGUUUUGUUUUUCAUUGCUGACUUUUGAGCACAGAA", "bound/input enrichment": "1.42 ratio"}
